# Measurements collected from several papers.
# Each line is one published result; not all experiments were run side by side. “And” joins repeats or separate records; there may be more than shown. ± marks the error that the study gave.
# Gria2/Glutamate receptor 3: Gria2/Glutamate receptor 3 (Rattus norvegicus, UniProt P19491+P19492)
# UniProt P19492, sequence (whole entry, looked up): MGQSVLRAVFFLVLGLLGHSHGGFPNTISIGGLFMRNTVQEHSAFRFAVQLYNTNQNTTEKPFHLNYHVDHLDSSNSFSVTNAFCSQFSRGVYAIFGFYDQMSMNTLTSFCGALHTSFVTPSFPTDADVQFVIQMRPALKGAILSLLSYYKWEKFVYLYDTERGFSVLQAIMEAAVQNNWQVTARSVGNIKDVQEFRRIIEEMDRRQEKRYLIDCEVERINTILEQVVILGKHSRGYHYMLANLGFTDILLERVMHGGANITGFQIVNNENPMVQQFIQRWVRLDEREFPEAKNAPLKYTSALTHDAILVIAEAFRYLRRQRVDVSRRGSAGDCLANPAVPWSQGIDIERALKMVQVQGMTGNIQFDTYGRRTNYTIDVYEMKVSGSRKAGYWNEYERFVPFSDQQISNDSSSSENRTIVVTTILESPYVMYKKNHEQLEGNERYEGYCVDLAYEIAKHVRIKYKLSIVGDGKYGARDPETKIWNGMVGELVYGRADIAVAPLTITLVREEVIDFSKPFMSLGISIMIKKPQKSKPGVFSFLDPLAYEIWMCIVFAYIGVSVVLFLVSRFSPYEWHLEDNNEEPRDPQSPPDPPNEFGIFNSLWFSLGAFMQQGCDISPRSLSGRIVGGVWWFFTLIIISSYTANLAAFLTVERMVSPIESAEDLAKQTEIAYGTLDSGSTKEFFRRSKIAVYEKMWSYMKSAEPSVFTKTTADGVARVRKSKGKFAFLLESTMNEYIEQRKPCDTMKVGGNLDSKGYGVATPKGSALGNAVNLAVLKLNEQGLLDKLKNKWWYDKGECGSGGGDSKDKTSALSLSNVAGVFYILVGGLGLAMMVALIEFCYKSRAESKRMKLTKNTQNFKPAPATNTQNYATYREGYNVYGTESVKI
# UniProt P19491, sequence (whole entry, looked up): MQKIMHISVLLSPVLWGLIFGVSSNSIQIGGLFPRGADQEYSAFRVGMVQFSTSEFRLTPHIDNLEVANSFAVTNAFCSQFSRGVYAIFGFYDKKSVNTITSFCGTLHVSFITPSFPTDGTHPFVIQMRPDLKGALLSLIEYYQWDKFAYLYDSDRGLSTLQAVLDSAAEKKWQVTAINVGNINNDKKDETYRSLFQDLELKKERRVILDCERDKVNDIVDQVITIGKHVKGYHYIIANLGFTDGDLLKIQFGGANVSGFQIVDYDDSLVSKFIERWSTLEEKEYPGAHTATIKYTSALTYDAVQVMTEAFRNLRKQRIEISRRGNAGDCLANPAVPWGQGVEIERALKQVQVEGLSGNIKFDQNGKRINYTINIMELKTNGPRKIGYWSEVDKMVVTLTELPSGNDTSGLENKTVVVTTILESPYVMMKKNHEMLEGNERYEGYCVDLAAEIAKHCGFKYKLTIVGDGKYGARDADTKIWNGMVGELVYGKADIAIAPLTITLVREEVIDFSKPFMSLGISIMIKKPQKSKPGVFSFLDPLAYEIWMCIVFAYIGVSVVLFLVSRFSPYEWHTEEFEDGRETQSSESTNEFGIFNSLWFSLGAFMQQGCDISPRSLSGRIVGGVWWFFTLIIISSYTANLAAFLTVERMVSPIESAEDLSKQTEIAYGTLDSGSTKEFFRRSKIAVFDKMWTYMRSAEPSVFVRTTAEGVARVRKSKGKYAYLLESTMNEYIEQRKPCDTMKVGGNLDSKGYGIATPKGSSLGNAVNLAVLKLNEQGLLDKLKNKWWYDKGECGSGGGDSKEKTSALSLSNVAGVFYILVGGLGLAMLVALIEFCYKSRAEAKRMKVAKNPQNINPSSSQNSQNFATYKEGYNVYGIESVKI
# SLC6A9: Sodium- and chloride-dependent glycine transporter 1 (SLC6A9, Homo sapiens, UniProt P48067)
# UniProt P48067, sequence (whole entry, looked up): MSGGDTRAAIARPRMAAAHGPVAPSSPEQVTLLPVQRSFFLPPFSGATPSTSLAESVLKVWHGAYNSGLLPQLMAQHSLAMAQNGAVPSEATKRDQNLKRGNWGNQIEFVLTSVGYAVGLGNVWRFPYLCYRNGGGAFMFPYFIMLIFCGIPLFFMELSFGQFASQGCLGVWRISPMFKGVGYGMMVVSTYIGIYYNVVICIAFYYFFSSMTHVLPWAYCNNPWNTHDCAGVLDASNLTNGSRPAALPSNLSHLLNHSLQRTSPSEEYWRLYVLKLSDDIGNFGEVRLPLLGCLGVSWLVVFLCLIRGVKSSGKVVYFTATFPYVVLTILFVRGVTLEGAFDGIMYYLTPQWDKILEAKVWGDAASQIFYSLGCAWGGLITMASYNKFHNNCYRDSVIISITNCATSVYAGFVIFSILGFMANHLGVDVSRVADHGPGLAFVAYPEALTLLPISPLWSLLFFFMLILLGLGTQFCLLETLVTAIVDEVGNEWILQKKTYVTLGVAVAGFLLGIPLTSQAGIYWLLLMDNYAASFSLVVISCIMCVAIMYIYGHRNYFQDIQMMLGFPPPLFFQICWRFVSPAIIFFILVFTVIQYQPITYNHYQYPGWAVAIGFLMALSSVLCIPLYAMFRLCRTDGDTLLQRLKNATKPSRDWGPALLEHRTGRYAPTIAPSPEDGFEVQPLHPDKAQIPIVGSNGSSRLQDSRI
# USP14: Ubiquitin carboxyl-terminal hydrolase 14 (USP14, Homo sapiens, UniProt P54578)
# UniProt P54578, sequence (whole entry, looked up): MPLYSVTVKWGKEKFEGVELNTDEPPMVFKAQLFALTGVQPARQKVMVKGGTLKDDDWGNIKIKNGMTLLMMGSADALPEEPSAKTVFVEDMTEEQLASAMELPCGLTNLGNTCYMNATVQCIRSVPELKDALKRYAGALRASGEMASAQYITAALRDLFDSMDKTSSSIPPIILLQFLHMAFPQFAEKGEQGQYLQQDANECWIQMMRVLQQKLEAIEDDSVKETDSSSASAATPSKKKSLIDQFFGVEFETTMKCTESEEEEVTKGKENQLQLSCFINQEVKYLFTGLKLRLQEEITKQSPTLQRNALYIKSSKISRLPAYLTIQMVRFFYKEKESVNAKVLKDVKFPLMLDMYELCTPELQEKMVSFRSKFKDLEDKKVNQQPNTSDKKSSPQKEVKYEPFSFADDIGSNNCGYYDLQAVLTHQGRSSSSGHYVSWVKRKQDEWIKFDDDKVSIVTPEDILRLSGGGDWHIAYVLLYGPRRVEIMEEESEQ
# T1: DNA hairpin, hairpin; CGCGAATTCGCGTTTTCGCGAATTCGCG
# UniProt Q13148, sequence (whole entry, looked up): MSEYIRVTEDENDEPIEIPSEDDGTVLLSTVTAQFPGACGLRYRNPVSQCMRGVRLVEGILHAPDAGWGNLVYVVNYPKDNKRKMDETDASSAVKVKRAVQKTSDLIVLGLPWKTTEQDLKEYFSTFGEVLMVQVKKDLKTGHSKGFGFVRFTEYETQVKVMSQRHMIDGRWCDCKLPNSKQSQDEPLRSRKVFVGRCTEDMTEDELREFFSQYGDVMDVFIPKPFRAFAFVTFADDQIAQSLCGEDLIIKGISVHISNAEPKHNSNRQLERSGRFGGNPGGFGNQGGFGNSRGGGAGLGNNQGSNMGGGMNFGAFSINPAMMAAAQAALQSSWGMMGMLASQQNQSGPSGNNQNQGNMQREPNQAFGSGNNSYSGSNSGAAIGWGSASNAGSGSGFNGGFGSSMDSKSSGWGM
# UniProt Q9H4M9, sequence (whole entry, looked up): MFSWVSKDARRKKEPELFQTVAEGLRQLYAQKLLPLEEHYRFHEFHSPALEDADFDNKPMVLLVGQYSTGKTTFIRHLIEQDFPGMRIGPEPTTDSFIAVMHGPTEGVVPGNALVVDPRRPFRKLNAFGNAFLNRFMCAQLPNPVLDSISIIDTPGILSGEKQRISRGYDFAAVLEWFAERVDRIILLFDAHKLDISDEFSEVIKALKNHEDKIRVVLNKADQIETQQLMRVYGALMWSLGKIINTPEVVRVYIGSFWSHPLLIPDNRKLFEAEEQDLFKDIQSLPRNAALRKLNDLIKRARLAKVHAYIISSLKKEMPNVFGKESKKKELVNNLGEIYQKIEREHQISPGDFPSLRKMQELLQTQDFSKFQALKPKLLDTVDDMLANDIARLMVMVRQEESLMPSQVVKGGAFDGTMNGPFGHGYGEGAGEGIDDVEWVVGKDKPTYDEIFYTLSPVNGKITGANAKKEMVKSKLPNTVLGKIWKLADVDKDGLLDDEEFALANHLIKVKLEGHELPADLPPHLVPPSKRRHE
# UniProt P46089, sequence (whole entry, unmodified, looked up): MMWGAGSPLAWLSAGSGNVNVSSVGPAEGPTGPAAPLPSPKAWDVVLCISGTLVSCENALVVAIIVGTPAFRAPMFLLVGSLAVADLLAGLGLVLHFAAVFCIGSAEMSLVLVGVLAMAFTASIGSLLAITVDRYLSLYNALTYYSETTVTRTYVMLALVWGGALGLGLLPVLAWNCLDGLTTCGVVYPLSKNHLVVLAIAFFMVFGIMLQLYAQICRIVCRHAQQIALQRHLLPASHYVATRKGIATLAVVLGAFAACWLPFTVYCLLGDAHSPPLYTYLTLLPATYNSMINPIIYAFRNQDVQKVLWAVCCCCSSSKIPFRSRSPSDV
# UniProt Q9BY41, sequence (whole entry, unmodified, looked up): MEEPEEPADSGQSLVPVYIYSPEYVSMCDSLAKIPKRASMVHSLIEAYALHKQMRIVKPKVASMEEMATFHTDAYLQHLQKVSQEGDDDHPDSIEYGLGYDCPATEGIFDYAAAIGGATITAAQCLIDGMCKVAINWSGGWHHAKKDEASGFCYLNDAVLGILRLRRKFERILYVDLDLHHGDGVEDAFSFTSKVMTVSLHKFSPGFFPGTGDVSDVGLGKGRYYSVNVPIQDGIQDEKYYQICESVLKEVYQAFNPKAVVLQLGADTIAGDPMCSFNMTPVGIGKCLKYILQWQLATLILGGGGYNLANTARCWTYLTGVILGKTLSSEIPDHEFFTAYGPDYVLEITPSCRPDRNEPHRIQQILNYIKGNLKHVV
# UniProt Q99720, sequence (whole entry, looked up): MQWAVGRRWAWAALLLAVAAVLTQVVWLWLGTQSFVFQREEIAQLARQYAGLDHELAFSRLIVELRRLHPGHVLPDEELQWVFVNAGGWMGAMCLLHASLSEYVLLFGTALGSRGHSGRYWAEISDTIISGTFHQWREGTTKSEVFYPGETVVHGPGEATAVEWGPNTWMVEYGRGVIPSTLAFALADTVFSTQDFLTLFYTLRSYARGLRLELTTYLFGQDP
Compound,target,assay,system,setting,how to read,endpoint,value
CCCCCCCO[C@H]1[C@H](OC)O[C@H](CO)[C@@H](O)[C@H](O)[C@@H]1O,"Type 1 fimbrin D-mannose specific adhesin, lectin domain (fimH, Escherichia coli K-12, UniProt P08191)","binding, isothermal titration calorimetry",,"25 °C, global fit of two titrations",,ΔG,-7.72 kcal/mol
COC(=O)Cc1cc2c(cc1C(=O)c1ccccc1Cl)OCO2,Gria2/Glutamate receptor 3,"glutamate-evoked current, whole-cell patch clamp",HEK-293T,"concentration not given, weighted tau, 500 ms pulse, with: glutamate",,desensitization time constant,1.9 ± 0.2 ms
CC(C)Oc1cc(Cl)ccc1CNc1cc(-c2ccccc2)nc2ncnn12,"G-protein coupled receptor 3 (GPR3, Homo sapiens, UniProt P46089, Q215A)","cAMP level, cAMP GloSensor",,3 µM,higher = more cAMP,cAMP luminescence,12400 a.u. and 15600 a.u. and 11200 a.u. and 9420 a.u.
Cc1cc(C)cc(COc2cc3c(cc2OCc2cc(C)cc(C)c2)C2CC(O)(Cc4cn(CCOCCOCCNC(=O)CCCCC5SCC6NC(=O)NC65)nn4)CC(C)N2CC3)c1 (stereo not drawn),"ATP-dependent RNA helicase DDX39A (Homo sapiens, UniProt O00148)","biotinylated probe pull-down, item: DDX39A",,10 µM probe,baseline: heavy over light,SILAC ratio,3.68
COC(=O)[C@@]1(Cc2ccccc2)C=C(C(=O)OC(C)(C)C)C(=O)CC1,"Mitogen-activated protein kinase 14 (MAPK14, Homo sapiens, UniProt Q16539, C119V)","peptide binding, fluorescence polarization",,15.62 µM,,fraction bound,0.361
CCOC(=O)C1CCCN(CCOC(c2ccc(OC)cc2)(c2ccc(OC)cc2)c2ccc(S(=O)(=O)N(C)C)cc2)C1 (stereo not drawn),SLC6A9,cell-free assay,,1 µM,,remaining signal,100%
CC[C@H](C)[C@H](NC(=O)[C@@H](NC(=O)[C@@H](NC(=O)[C@@H](NC(=O)[C@H](CCCNC(=N)N)NC(=O)[C@H](CCC(=O)O)NC(=O)[C@H](CCC(=O)O)NC(=O)[C@H](C)NC(=O)[C@H](CCC(=O)O)NC(=O)CNC(=O)[C@H](C)NC(=O)CN)C(C)C)C(C)C)C(C)C)C(=O)N[C@@H](CC(=O)O)C(=O)N[C@@H](CC(=O)O)C(=O)N[C@@H](CC(=O)O)C(=O)N[C@@H](CCC(=O)O)C(=O)N[C@@H](CC(=O)O)C(=O)N[C@@H](CC(=O)O)C(=O)N[C@@H](CC(=O)O)C(=O)N[C@@H](C)C(=O)N[C@@H](CCC(=O)O)C(=O)N[C@@H](CC(N)=O)C(=O)N[C@@H](CO)C(=O)N[C@@H](CO)C(=O)N[C@@H](CO)C(=O)N[C@@H](CCCNC(=N)N)C(=O)N[C@@H](Cc1ccc(O)cc1)C(=O)O,"Small ubiquitin-related modifier 1 (Homo sapiens, UniProt P63165, C52A)","binding, ITC",,"pH 7.4, chimera with SUMO2 N-terminus",,ΔH,6.72 ± 0.91 kcal/mol
CN1CCN(c2ccc3nc(-c4ccc5nc(-c6ccc(OCCCCNC(=O)c7cccc8c7C(=O)OC87c8ccc(N(C)C)cc8C(C)(C)c8cc(N(C)C)ccc87)cc6)[nH]c5c4)[nH]c3c2)CC1,"T1, DNA hairpin, hairpin",fluorescence titration,,"1 h, apparent, single-site fit, with: probe 3 nM",,Kd,1300 nM
Cc1ncc2[nH]c(=O)n(-c3cnc(Oc4cccc5c4C(C)(C)CO5)c(Cl)c3C)c2n1,"Voltage-gated potassium channel KCNC1 (KCNC1, Homo sapiens, UniProt P48547)","potassium current, activator, manual patch clamp",,"10 µM, test pulse -60 mV",baseline: control,maximal current,44.9 ± 18.8%
CCCCCCCCCCCCC/C=C/C=O,"Ketosamine-3-kinase, C24 (FN3KRP, Homo sapiens, UniProt Q9HA64)",competitive isoTOP-ABPP,"proteome, soluble, MDA-MB-231","100 µM, 60 min, with: iodoacetamide probe","baseline: DMSO over compound-treated, higher = stronger cysteine blockade",isoTOP-ABPP competition ratio,1
Cc1ccc(-n2cc(CSc3nc4ccccc4n3Cc3cn(-c4ccc(C)cc4)nn3)nn2)cc1,DNA topoisomerase I (calf thymus),"enzyme activity, inhibitor",MDA-MB-231,"50, 100, 500 ppm, 30 min, 37 °C",,geometric mean inhibition,38.2%
CC(=O)NCCN(c1nc(N2CC(Oc3ccccc3)C2)nc(N2CC3C(CCOc4cc(-c5scnc5C)ccc4CNC(=O)[C@@H]4C[C@@H](O)CN4C(=O)[C@@H](NC(=O)C4(F)CC4)C(C)(C)C)C3C2)n1)C(C)C (stereo partly drawn),"VHL/BRD9 (Homo sapiens, UniProt P40337+Q9H8M2)","BRD9 degradation, degrader, HiBiT",HEK293T BRD9-HiBiT,15 h,,Dmax,80%
NC(=O)C[C@@H]1NC(=O)[C@H](Cc2ccc(O)cc2)NC(=O)CNC(=O)CNC(=O)[C@H](CCC(=O)O)NC(=O)[C@H](CCC(=O)O)NC(=O)[C@H](Cc2ccccc2)NC(=O)[C@@H]2CCCN2C1=O,"EH domain-containing protein 1, EH domain (Homo sapiens, UniProt Q9H4M9)","peptide binding, ITC",,"concentration not given, 150 mM NaCl",,binding stoichiometry,1.1 and 1.04
CC(C)[C@@H]1NC(=O)[C@H](Cc2ccccc2)NC(=O)CSC[C@@H](C(N)=O)NC(=O)[C@H](CCC(=O)O)NC(=O)[C@H](CO)NC(=O)[C@H](Cc2c[nH]c3cccc(Cl)c23)NC(=O)[C@H](C2CCCCC2)NC(=O)[C@H](C(C)C)NC(=O)[C@H](Cc2ccc(O)cc2)NC(=O)[C@H](CC(=O)O)NC(=O)[C@H](Cc2c[nH]c3ccccc23)NC(=O)[C@H](Cc2ccc(N)nc2)NC(=O)[C@H](Cc2c[nH]c3ccc(Cl)cc23)NC(=O)[C@H](CCC(=O)O)NC1=O,"Interleukin-1 receptor-like 2 (IL1RL2, Homo sapiens, UniProt Q9HB29)","reporter gene (SEAP), inhibitor, HEK-Blue IL-36R reporter",HEK-Blue IL-36R cells,"0.41 µM, 6 h, with: IL-36γ 10 ng/mL",,remaining activity,99.8%
O=C(O)Cc1cc2c(cc1C(=O)c1ccccc1Cl)OCO2,Gria2/Glutamate receptor 3,"glutamate-evoked current, whole-cell patch clamp",HEK-293T,"concentration not given, weighted tau, 500 ms pulse, with: glutamate",,desensitization time constant,1 ± 0.1 ms
CC(NN)c1nn(-c2ccccc2)c(=O)c2c(N)scc12 (stereo not drawn),USP14,"enzyme activity, inhibitor",,17 µM,,inhibition,47%
OC1Cc2ccccc2CC1N1CCC(c2ccc(Br)cc2)CC1 (racemic),"Sigma non-opioid intracellular receptor 1 (SIGMAR1, Homo sapiens, UniProt Q99720)",,"rat liver (sigma2), human sigma1",,baseline: Ki sigma2 over Ki sigma1,selectivity ratio,8.1
Cc1cc(=O)oc2cc(NC(=O)CCCCCCC(=O)NO)ccc12,"Histone deacetylase 8 (HDAC8, Homo sapiens, UniProt Q9BY41)",ITC,triethanolamine buffer,pH 7.5,,TΔS,3.1 kcal/mol
Cc1cc(NC(=O)c2cccc(N)c2)ccc1Nc1nccc(-c2cccnc2)n1,"Mitogen-activated protein kinase 9 (MAPK9, Homo sapiens, UniProt P45984)","enzyme activity, inhibitor",,"4.938 µM, unit not given",baseline: vehicle,remaining activity,0.321
O=C1c2sc(-c3ccc(N4CCC(CO)CC4)nc3F)nc2CCN1c1cccnc1,"TAR DNA-binding protein 43, aggregated (TARDBP, Homo sapiens, UniProt Q13148)",radioligand binding,"human, FTLD-TDP type A insoluble extract",1.29 nM,,specific binding,0.526 nM and 0.754 nM and 0.492 nM and 0.734 nM
Oc1ccc(Cl)cc1C=Nc1cccc2nsnc12,USP14,"enzyme activity, inhibitor",,17 µM,,inhibition,75%
C[C@H](N)C(=O)O,SLC6A9,cell-free assay,,10 µM,,remaining signal,43.7%
COC(=O)[C@@]1(C)C=C(C(=O)Nc2cccc(C(=O)Nc3ccc(Nc4nccc(-c5cccnc5)n4)c(C)c3)c2)C(=O)CC1,"Mitogen-activated protein kinase 8 (MAPK8, Homo sapiens, UniProt P45983)","enzyme activity, inhibitor",,"0.1829 µM, 18 h, unit not given, with: GSH 10 mM pre-incubation",baseline: vehicle,remaining activity,0.169
Cc1cc(O)nc(O)c1C(=O)O,USP14,"enzyme activity, inhibitor",,17 µM,,inhibition,77%

# For quick reference, copied from above:
Compound,target,assay,system,setting,how to read,endpoint,value
OC1Cc2ccccc2CC1N1CCC(c2ccc(Br)cc2)CC1 (racemic),"Sigma non-opioid intracellular receptor 1 (SIGMAR1, Homo sapiens, UniProt Q99720)",,"rat liver (sigma2), human sigma1",,baseline: Ki sigma2 over Ki sigma1,selectivity ratio,8.1
Cc1cc(=O)oc2cc(NC(=O)CCCCCCC(=O)NO)ccc12,"Histone deacetylase 8 (HDAC8, Homo sapiens, UniProt Q9BY41)",ITC,triethanolamine buffer,pH 7.5,,TΔS,3.1 kcal/mol
Cc1cc(NC(=O)c2cccc(N)c2)ccc1Nc1nccc(-c2cccnc2)n1,"Mitogen-activated protein kinase 9 (MAPK9, Homo sapiens, UniProt P45984)","enzyme activity, inhibitor",,"4.938 µM, unit not given",baseline: vehicle,remaining activity,0.321
